Assay results collected from several papers.
Numbered parts are unrelated; each lists some results of a single study. Positions count from the first letter of the parent shown.

Block 1 — target: CCNB2, cyclin fold, Cln2 fusion (human); technique: yeast growth competition, sequencing; sample: yeast; notes: weak parent motif; reference: not given; direction: higher = stronger binding
Parent: RRM2 docking peptide (human); SKTARRIFQEPTE; partner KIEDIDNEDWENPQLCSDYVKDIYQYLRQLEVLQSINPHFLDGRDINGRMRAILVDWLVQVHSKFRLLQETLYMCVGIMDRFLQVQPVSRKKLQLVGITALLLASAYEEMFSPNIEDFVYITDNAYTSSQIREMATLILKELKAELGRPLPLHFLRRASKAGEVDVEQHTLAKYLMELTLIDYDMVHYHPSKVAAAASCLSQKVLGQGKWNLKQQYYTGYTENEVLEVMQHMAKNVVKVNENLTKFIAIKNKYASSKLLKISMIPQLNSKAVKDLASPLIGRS
| Substitution | normalised enrichment score |
| --- | --- |
| SATARRIFQEPTE [K2A] | 0.145 |
| SKTARRIFQAPTE [E10A] | 0.19 |
| SKTAARIFQEPTE [R5A] | 0.0799 |
| SKTARAIFQEPTE [R6A] | 0.0441 |
| SKTARRAFQEPTE [I7A] | 0.581 |
| SKTARRIFAEPTE [Q9A] | 0.648 |

Block 2 — technique: protein-binding microarray; molecule type: double-stranded DNA, one strand shown; sample: in vitro; tested at: 0.8 µM; notes: whole 60-bp probe, no competitor; direction: higher = stronger binding; constant ends, left off below: … GTCTTGATTCGCTTGACGCTGCTG
Target: Centromere-binding protein 1, full length, N-terminal tag (CBF1, Saccharomyces cerevisiae, UniProt P17106, residues 1-351)
Chain of UniProt P17106 (whole entry, looked up): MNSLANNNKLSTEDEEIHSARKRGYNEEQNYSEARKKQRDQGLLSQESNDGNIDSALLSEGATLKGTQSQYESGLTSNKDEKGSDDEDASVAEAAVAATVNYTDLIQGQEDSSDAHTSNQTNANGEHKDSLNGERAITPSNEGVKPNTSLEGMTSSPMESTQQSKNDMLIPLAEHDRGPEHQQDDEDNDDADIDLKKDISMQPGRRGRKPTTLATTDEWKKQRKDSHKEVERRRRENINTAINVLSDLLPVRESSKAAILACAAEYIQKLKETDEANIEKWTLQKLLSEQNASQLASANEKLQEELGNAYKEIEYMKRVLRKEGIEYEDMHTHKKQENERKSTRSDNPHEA
| Oligonucleotide | fluorescence intensity [a.u.] |
| --- | --- |
| CTAACGCGAACTAGTCACGATTGATCAAACTTTTTC | 629 |
| CCTAACTACTATACGCCCGTGCAATAGCTTCGTACA | 551 |
| CCTAACTACTATACGCATGTGTTATAGCTTCGTACA | 623 |
| GAAAACGTTCAAGGCAACGTGTATGTTTGTTATTAG | 575 |
| GAAATTAATGTTTATCACGTTATTATTTTTTTGTAG | 2160 |
| CTATAAGCTATTTGTCACGTTACTATTTCTCTCTTC | 2370 |
| GAATCTTTAAGCGCTCTCGTGAGAGAATATCACTAG | 706 |

Block 3 — target: CREB3, bZIP domain (human); technique: DHFR protein complementation; sample: yeast; reference: wild-type JUN-FOS pair; direction: higher = stronger binding
Notes: single substitutions, most at no-binding floor
Parent: JUN, bZIP domain (human); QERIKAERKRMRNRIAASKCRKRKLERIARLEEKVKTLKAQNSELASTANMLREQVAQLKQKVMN; partner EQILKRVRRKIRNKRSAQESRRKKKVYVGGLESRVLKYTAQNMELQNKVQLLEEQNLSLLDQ
| Substitution | binding fitness [natural log] |
| --- | --- |
| L59A | -1.71 |
| L52I | -1.39 |
| T37S | -1.27 |
| K39M | -1.45 |
| L52T | -1.5 |

Other studies, line by line
| Substance | target | assay | test system | setting | scale | endpoint | result |
| --- | --- | --- | --- | --- | --- | --- | --- |
| PhoQ, residues 284 288 289 292 302 303 SMYGEC | PhoP, residues 12 14 15 18 19 LYHSL (Escherichia coli, UniProt P23836) | Sort-seq, measured: YFP reporter | E. coli | PhoQ-PhoP variant library, added: 10 µM Mg2+ | reference: high Mg2+ state, higher = stronger signaling | fold induction | 3.48 |

Some of these lines once more (other studies, line by line):
| Substance | target | assay | test system | setting | scale | endpoint | result |
| --- | --- | --- | --- | --- | --- | --- | --- |
| PhoQ, residues 284 288 289 292 302 303 SMYGEC | PhoP, residues 12 14 15 18 19 LYHSL (Escherichia coli, UniProt P23836) | Sort-seq, measured: YFP reporter | E. coli | PhoQ-PhoP variant library, added: 10 µM Mg2+ | reference: high Mg2+ state, higher = stronger signaling | fold induction | 3.48 |
